# Experimental data gathered from unrelated publications.
# Lines come from different studies, so protocols differ. ± marks the error that the study gave.
# U2AF2: U2AF2 148-342 (Homo sapiens, UniProt P26368)
# UniProt P26368, sequence (whole entry, looked up): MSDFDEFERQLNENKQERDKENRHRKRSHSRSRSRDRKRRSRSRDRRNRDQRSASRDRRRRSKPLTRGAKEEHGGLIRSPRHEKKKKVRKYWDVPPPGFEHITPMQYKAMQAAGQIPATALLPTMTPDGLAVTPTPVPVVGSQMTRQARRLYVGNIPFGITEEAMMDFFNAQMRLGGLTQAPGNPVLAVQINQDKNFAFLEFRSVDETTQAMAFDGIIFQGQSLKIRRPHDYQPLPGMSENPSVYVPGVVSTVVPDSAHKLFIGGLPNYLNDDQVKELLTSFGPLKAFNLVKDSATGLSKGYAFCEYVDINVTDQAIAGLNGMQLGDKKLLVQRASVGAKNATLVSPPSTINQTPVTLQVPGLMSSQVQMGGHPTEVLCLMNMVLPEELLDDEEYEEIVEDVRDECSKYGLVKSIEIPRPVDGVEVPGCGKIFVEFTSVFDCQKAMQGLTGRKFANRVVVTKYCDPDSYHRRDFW
# B1: ovalbumin; sequence looked up; chain GSIGAASMEFCFDVFKELKVHHANENIFYCPIAIMSALAMVYLGAKDSTRTQINKVVRFDKLPGFGDSIEAQCGTSVNVHSSLRDILNQITKPNDVYSFSLASRLYAEERYPILPEYLQCVKELYRGGLEPINFQTAADQARELINSWVESQTNGIIRNVLQPSSVDSQTAMVLVNAIVFKGLWEKAFKDEDTQAMPFRVTEQESKPVQMMYQIGLFRVASMASEKMKILELPFASGTMSMLVLLPDEVSGLEQLESIINFEKLTEWTSSNVMEERKIKVYLPRMKMEEKYNLTSVLMAMGITDVFSSSANLSGISSAESLKISQAVHAAHAEINEAGREVVGSAEAGVDAASVSEEFRADHPFLFCIKHIATNAVLFFGRCVSP
# B2: human RAB10; sequence looked up; chain MAKKTYDLLFKLLLIGDSGVGKTCVLFRFSDDAFNTTFISTIGIDFKIKTVELQGKKIKLQIWDTAGQERFHTITTSYYRGAMGIMLVYDITNGKSFENISKWLRNIDEHANEDVERMLLGNKCDMDDKRVVPKGKGEQIAREHGIRFFETSAKANINIEKAFLTLAEDILRKTPVKEPNSENVDISSGGGVTGWKSKCC
# UniProt P21980, sequence (whole entry, looked up): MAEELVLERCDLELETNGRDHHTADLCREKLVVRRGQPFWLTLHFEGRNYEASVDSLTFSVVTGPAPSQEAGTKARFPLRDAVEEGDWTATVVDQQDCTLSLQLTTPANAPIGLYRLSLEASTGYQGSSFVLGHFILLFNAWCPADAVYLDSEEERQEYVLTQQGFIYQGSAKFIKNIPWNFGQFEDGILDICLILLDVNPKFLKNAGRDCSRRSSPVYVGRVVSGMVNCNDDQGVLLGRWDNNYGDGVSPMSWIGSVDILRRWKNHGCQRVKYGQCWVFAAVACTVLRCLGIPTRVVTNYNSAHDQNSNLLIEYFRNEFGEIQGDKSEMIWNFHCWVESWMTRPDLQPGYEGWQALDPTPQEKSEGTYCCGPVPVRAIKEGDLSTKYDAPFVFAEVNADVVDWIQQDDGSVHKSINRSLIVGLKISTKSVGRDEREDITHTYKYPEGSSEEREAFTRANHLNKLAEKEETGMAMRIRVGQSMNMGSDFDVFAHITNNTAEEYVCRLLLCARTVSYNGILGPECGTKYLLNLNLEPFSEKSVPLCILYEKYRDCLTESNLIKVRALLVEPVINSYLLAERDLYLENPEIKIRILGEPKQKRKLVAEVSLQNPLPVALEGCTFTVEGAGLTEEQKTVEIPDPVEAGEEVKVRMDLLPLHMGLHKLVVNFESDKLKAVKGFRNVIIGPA
Molecule,tested on,test,test system,setting,scale,measurement,value
ACDDQNPWRAYLDLLFPTDTLLLDLLW,,ex vivo fluorescence imaging,"peptide, BALB/c mice, 4T1 tumour-bearing, muscle","intravenous, 5 nmol, 2 h post-injection",higher = more uptake,mean fluorescence intensity,963 ± 121 a.u.
human ME2 D102S,,"enzyme activity, substrate",recombinant enzyme,"pH 7.4, with: fumarate 3 mM",,K0.5,3.37 ± 0.12 mM
ACEEQNPWARYLEWLFPTETLLLEL,,ex vivo fluorescence imaging,"peptide, BALB/c mice, 4T1 tumour-bearing, muscle","intravenous, 5 nmol, 2 h post-injection",higher = more uptake,mean fluorescence intensity,1150 ± 127 a.u.
insulin icodec,,,"human, mild renal impairment, serum","subcutaneous, 1.5 U/kg single dose",baseline: normal renal function,AUC(0-inf) increase,12%
insulin degludec,,,human,"subcutaneous, 0.4 IU/kg, 1 FC level, single dose, reference formulation",,AUC0−12,171 ± 35 ng·h/mL
insulin aspart,,,"human type 1 diabetes pump-treated, plasma","subcutaneous pump, two-compartment model",,Tmax,1.1 h
GGGAGCAGGAGAGAGGUCAGAUGAACGAGAGAUGGUAGGCCUCAAAUACAGUCCCUAUGCGUGCUAGUGUGA (ssRNA; 2'-fluoro pyrimidines),"TGM2 2-687 (Homo sapiens, UniProt P21980)",SPR,RNA,with: MgCl2 5 mM,higher = more binding,relative binding,245 RU
adrenomedullin,,RP-HPLC,HALO C18 column,"25 µM, acetic acid/acetonitrile, 25 min gradient",,retention time,7.44 min
PSMD4 (human),CYB5R4 knockout human cells,"PP4 interaction, 3xFLAG-PP4C IP-MS",,concentration not given,baseline: CYB5R4 KO over parental,log2 fold change,-0.15
semaglutide,,,"Wistar rat, male, diet-induced obese, blood, fasted","subcutaneous, dose not given, after 10 weeks treatment",,serum ALT,26 ± 4 U/L
human ME2 Q51H,,"enzyme activity, substrate",recombinant enzyme,"pH 7.4, with: fumarate 3 mM",,K0.5,2.71 ± 0.18 mM
insulin aspart,,,"human, type 1 diabetes, plasma","subcutaneous, 0.3 U/kg, geometric mean",,insulin Cmax,5.04 ng/mL
Malic enzyme 2 S106K (human),,"enzyme activity, substrate",recombinant enzyme,"pH 7.4, with: no fumarate",,K0.5,10.9 ± 0.3 mM
ACEQNPIYWARYADWLFTTPLLLLDLALLVDADEGT,,ex vivo fluorescence imaging,"peptide, BALB/c mice, 4T1 tumour-bearing, muscle","intravenous, 5 nmol, 2 h post-injection",higher = more uptake,mean fluorescence intensity,1060 ± 138 a.u.
UCAUUUCAU (ssRNA),U2AF2,sequencing of bound RNA,RNA,motif only,,Kd,4.66 µM
human ME2 I58F,,"enzyme activity, substrate",recombinant enzyme,"pH 7.4, with: fumarate 3 mM",,K0.5,2.47 ± 0.18 mM
B1 (ovalbumin),,"IVIS, DyLight 755-labelled",SKH1-Elite mice,"subcutaneous, injection volume 50 µL",,time to 75% release from injection site,≤ 2 days
Malic enzyme 2 S121Q (human),,"enzyme activity, substrate",recombinant enzyme,"pH 7.4, with: no fumarate",,K0.5,9.44 ± 0.31 mM
Neuropeptide Y,,RP-HPLC,HALO C18 column,"25 µM, formic acid/acetonitrile, 25 min gradient",,retention time,7.86 min
durvalumab,,,"human cancer patients, plasma","intravenous, 1500 mg, cycle 4 day 1, with: adavosertib 250 mg once daily",,Ctrough geometric mean,91000 ng/mL
human ME2 E59N,,"enzyme activity, substrate",recombinant enzyme,"pH 7.4, with: no fumarate",,K0.5,19 ± 2.77 mM
insulin icodec,,,Chinese type 2 diabetes patients,subcutaneous,baseline: steady state over first dose,accumulation ratio for AUC,2.29
rituximab,,,relapsed iNHL patients,"dose not given, after third infusion",,serum concentration,324000 ng/mL
insulin aspart,,"ELISA after PEG precipitation, item: free insulin aspart","human, type 1 diabetes, serum","subcutaneous, least squares mean, single dose",,tmax,1.1 h
B2 (human RAB10),CYB5R4 knockout human cells,"PP4 interaction, 3xFLAG-PP4C IP-MS",,concentration not given,baseline: CYB5R4 KO over parental,log2 fold change,-0.13
human ME2 T60S,,"enzyme activity, substrate",recombinant enzyme,"pH 7.4, with: no fumarate",,K0.5,11.4 ± 0.41 mM
insulin icodec,,,"Japanese patients with type 1 diabetes, serum",geometric mean,,half-life at steady state,164 h
pegcetacoplan,,item: immune system disorders,patients with PNH,"dose not given, phase Ib trial",,number of TEAEs,2
GAAGUGUCA (ssRNA),U2AF2,sequencing of bound RNA,RNA,motif only,,Kd,3.14 µM
insulin aspart,,ELISA,"human, adults with type 1 diabetes, up to 35 years, serum","subcutaneous, 0.2 U/kg",,tmax,0.983 h
human ME2 P78D,,"enzyme activity, substrate",recombinant enzyme,"pH 7.4, with: fumarate 3 mM",,K0.5,4.56 ± 0.14 mM
insulin,,LC-MS/MS,prepared human sample,two freeze-thaw cycles,,concentration,11.6 ng/mL

# Excerpt of the above:
Molecule,tested on,test,test system,setting,scale,measurement,value
semaglutide,,,"Wistar rat, male, diet-induced obese, blood, fasted","subcutaneous, dose not given, after 10 weeks treatment",,serum ALT,26 ± 4 U/L
human ME2 Q51H,,"enzyme activity, substrate",recombinant enzyme,"pH 7.4, with: fumarate 3 mM",,K0.5,2.71 ± 0.18 mM
